Published values pooled from the literature.
Each line is one published result; not all experiments were run side by side. ± marks the error that the study gave.
Target: Kappa-type opioid receptor (OPRK1, Homo sapiens, UniProt P41145)

SMILES | test | system | conditions | scale | endpoint | result
Cc1cc(-c2ccc3ccccc3c2)nnc1NCCN1CCN(C)CC1 | antagonist |  | concentration not given |  | antagonist activity | negative
CN1CC[C@@]23c4c5ccc(O)c4C[C@@H]2[C@H](O)C=C[C@@H]3[C@@H]1C5 | receptor activation, agonist, cell-based |  |  |  | Emax | 79 ± 12%
O=C(Cc1ccc(Cl)c(Cl)c1)N1CCN(Cc2ccon2)[C@@H]2COC[C@H](N3CCCC3)[C@H]21 (single isomer, unassigned) | β-arrestin-2 recruitment, agonist | U2OS | 1.5 h | baseline: U-69593 maximal response | Emax | 75 ± 40.5%
C/C(=N\OCCCN1CCCCC1)c1ccc(C(F)(F)F)cc1 | agonist, cAMP |  | 10 µM |  | activation | 2.93%
Cc1cc(Nc2nc(C[C@@]3(C(=O)O)CCN(Cc4cccc(Cl)c4F)[C@H](C)C3)cc(C)c2F)[nH]n1 | inhibitor |  | 10 µM |  | inhibition | 1.17%
N[C@H](C(=O)N1CCCC1)C1CCN(c2nccc3c(-c4ncc(Cl)cc4Cl)cccc23)CC1 | functional response, agonist |  | 10 µM |  | response | 60%
CC(C)C(=O)N1CCN(C(=O)Cc2ccc(Cl)c(Cl)c2)[C@H]2[C@H]1COC[C@@H]2N1CCCC1 (single isomer, unassigned) | agonist |  | 0.3333 h |  | Emax | 122%
CN[C@@H]1[C@H](O)[C@H](NC)[C@H]2O[C@]3(O)[C@H](O[C@@H]2[C@H]1O)O[C@H](C)C[C@H]3NC(=O)Cc1ccc(Cl)cn1 | ligand displacement, radioligand |  | 10 µM |  | inhibition | -19%
O=C(Cc1ccc(Cl)c(Cl)c1)N1CCNC2COCC(N3CCCC3)C21 (stereo not shown) | β-arrestin-2 recruitment, agonist | U2OS | 1.5 h | baseline: U-69593 maximal response | Emax | 67 ± 24.4%
CCN(CC)CCOc1ccc(-c2nnn(Cc3ccc(OC)cc3)c2N)cc1 | radioligand binding | HEK293 | 10 µM, safety profiling |  | inhibition | 7.52%

A few entries again:
SMILES | test | system | conditions | scale | endpoint | result
CCN(CC)CCOc1ccc(-c2nnn(Cc3ccc(OC)cc3)c2N)cc1 | radioligand binding | HEK293 | 10 µM, safety profiling |  | inhibition | 7.52%
